# Measurements from different studies.
# Parts stem from different laboratories: compare values within a part only.

# Study 1
# Target: Centromere-binding protein 1, full length, His-tagged (CBF1, Saccharomyces cerevisiae, UniProt P17106, residues 1-351)
# UniProt P17106, sequence (whole entry, looked up): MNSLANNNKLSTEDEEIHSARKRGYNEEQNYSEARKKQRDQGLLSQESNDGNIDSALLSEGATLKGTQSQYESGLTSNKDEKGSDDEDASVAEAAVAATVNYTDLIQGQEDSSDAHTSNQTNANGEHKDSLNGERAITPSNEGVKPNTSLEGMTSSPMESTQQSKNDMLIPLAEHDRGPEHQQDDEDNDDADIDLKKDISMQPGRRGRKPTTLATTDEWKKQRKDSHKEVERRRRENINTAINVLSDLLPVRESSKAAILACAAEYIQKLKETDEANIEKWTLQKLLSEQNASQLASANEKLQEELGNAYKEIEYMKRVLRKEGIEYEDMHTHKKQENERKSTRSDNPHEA
# Method: competition protein-binding microarray
# Form: double-stranded DNA, one strand shown
# Matrix: in vitro
# Tested at: 2 µM
# Notes: whole 60-bp probe, lowest competitor level
# Together with: Pho4 competitor, 0.05 µM
# Reading: higher = stronger binding
Oligonucleotide,fluorescence intensity
CACAGACAGGATAGCTGCGTGGGACAATATTGTTGAGTCTTGATTCGCTTGACGCTGCTG,73.2 a.u.
CACCCCAACAAAGGACATGTGGAAATTGATCGTCGAGTCTTGATTCGCTTGACGCTGCTG,81.9 a.u.
CCGTAGCCTCTTACCAATGTGACGGAGACCCCACCGGTCTTGATTCGCTTGACGCTGCTG,62.2 a.u.
CATACCCAACCTTGGCTAGTGGGTGAAGATATTTGTGTCTTGATTCGCTTGACGCTGCTG,64.4 a.u.

# Study 2
# Target: Interferon regulatory factor 5, full length, phosphomimetic (IRF5, Homo sapiens, UniProt Q13568-2, residues 1-514, S451D/S453D/S456D/S462D)
# Method: protein-binding microarray
# Form: double-stranded DNA, one strand shown
# Matrix: in vitro
# Tested at: 940 nM top
# Notes: 60-bp whole probe
# Together with: salmon DNA 0.4 mg/ml
# Baseline: random background probes
# Reading: higher = stronger binding
# All sequences stand within: GCCTAGCAC … GTCTTGATTCGCTTGACGCTGCTG
Oligonucleotide,fitted relative affinity [z-score]
CCATCGATTTCTCTTTCCCAAGTGCTA,1.64
GACGGTATCGGATTTCGGGACGTGCTA,3.18
GTCGAACTGAGTTTCGAGACGTGCTAG,5.39
TCAGGTTTGAGTCTTCTACTGTGCTAG,-0.0351
TTTGGACTGCTTATCCTTTAGTGCTAG,-0.134

# Study 3
# Target: RING finger protein unkempt homolog, zinc fingers 1-6, GST-SBP tag (UNK, Homo sapiens, UniProt Q9C0B0, residues 30-357)
# UniProt Q9C0B0, sequence (30-357, looked up): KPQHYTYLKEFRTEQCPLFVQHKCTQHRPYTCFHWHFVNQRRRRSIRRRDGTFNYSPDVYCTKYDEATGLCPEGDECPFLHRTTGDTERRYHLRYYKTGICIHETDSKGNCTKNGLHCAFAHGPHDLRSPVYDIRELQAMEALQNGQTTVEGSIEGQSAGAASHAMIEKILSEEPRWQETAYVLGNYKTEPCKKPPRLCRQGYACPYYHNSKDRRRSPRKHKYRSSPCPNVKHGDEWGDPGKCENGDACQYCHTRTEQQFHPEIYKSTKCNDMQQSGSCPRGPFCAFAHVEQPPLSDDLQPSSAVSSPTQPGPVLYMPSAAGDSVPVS
# Method: RNA Bind-n-Seq
# Form: RNA
# Matrix: in vitro
# Tested at: not given
# Notes: RNA with constant flanks, human-mouse chimeric sites, ends assumed
# Baseline: input RNA pool
# Reading: higher = stronger binding
Oligonucleotide,bound/input enrichment [ratio]
GGGAGUUCUACAGUCCGACGAUCGAUCAUGAACCACCAUCAGAAAUGAAGAUGAGAUUACCCAGACGAGCCAAAACAGCUGCGCUACAGAAAAAGUAAACUAACCUUGCAGAGUUCCUUAAUGAAGAUACAAGUUAAGAGAGCCAACAGAGGAUUGAGCAUCA,0.317
GGGAGUUCUACAGUCCGACGAUCAGAUUCCCUCUCUUAAAACCUCCUCCGAAGUUGGAGUCUCUUAUAGAUGCCUCAUCCCCUGUUAGCGUUUUAGUUUGGACCACCCAGCCUUGGACAAUUCCCGCCAACCAGGCAAUUUGCCAACAGAGGAUUGAGCAUCA,0.889
GGGAGUUCUACAGUCCGACGAUCCUUCGGAAAAAAAAAUUACCUUUUCUGCAUAUUAUAGCCCUCCCAUAGAUCCACGUUCAAGCUCAAAGAGCAAAGGCUUUGCACGGAGCUCAAACAUCUGAUGAAGAAAGAUUUCUGAGACAACAGAGGAUUGAGCAUCA,0.97
GGGAGUUCUACAGUCCGACGAUCGAUAAGAAAAGCUUGUUGGAGACCCGCUUGCAUGUCACUGGUAGAGACCUGAGGUGUCAAAUAGCUGAAACUUUCGGAUUUCAAGAAAAUUACAUCAAAAUUGUCAUAAAUAAGAAACAGCAACAGAGGAUUGAGCAUCA,0.333

# Further values, each from its own experiment
Substance,target,assay,test system,setting,scale,measurement,result
"PhoQ, residues 284 288 289 292 302 303 AANNSF","PhoP, residues 12 14 15 18 19 LHHVQ (Escherichia coli, UniProt P23836)","Sort-seq, measured: YFP reporter",E. coli,"PhoQ-PhoP variant library, together with: 10 µM Mg2+","baseline: high Mg2+ state, higher = stronger signaling",fold induction,26.2

# For quick reference, copied from above (study 2):
Oligonucleotide,fitted relative affinity [z-score]
GTCGAACTGAGTTTCGAGACGTGCTAG,5.39
TCAGGTTTGAGTCTTCTACTGTGCTAG,-0.0351
